Measured values from different studies.
Each line is one published result; not all experiments were run side by side. Values joined by “and” are separate records of one study, mostly repeats; a detail may differ. Numbers after ± are the reported error.

CCCCCCNCc1ccc(Oc2ccc(Cl)cc2O)c(Cl)c1 — IC50 (Vero; cytotoxicity): 8 µg/mL
CN1CC[C@]23c4c5ccc(O)c4O[C@H]2[C@H](O)C=C[C@H]3[C@H]1C5 — log tautomerization constant: -0.32
C[C@@H](c1ccc2nccn2c1)n1nnc2ncc(-c3cn[nH]c3)nc21 — Cmax (savolitinib; human, plasma; 600 mg QD rifampicin, geometric LS mean, together with: savolitinib 600 mg): 482 ng·mL
O=C1NC2(CC2)COc2ncc(F)cc2[C@H]2COCCN2c2ccn3ncc1c3n2 — haematocrit (Sprague-Dawley rat, male, blood; oral, 10 mg/kg/day, 4 weeks, end of treatment, subacute toxicity): 44.2 ± 3.8%
Nc1c2c(nc3sc4c(c13)CCCCC4)CCCC2 — IC50 (HEK-293T; cytotoxicity; 3 days): > 10 µM
Oc1ccc2c3c1OC1C(O)C=CC4C(C2)N(CC2CCC2)CCC341 (stereo not drawn) — log tautomerization constant: 0.06
Cc1ccc(NS(=O)(=O)c2c(C(=O)N3CCCCCC3)c(C)n(C)c2C)c(Cl)c1 — viability (HaCaT; 0.412 µM, 60 h): 97.4% and 98.5%
Cc1sc2c(c1C)C(c1ccc(Cl)cc1)=N[C@@H](CC(=O)OC(C)(C)C)c1nnc(C)n1-2 — AUC(0-t) (CD1 mouse, male, plasma; intravenous, 5 mg/kg): 2130 ng·h/mL
CC(=O)NCCCC[C@@H]1NC(=O)[C@H](Cc2c[nH]c3c(C)cccc23)NC(=O)[C@H]([C@@H](C)O)NC(=O)[C@H](CC(N)=O)NC(=O)[C@@H](NC(C)=O)C(C)(C)SSC(C)(C)[C@@H](C(=O)N[C@@H](Cc2ccc(OCCN)cc2)C(=O)N[C@@H](Cc2ccc3ccccc3c2)C(=O)NC2(C(=O)N[C@@H](CCC(=O)O)C(=O)N[C@@H](CC(N)=O)C(=O)N[C@@H](Cc3cccnc3)C(=O)N(C)CC(N)=O)CCOCC2)NC1=O — fraction unbound (human alpha-1-acid glycoprotein 0.07%; equilibrium dialysis; 1 µM): 98.9 ± 0.5%
COc1cc2c(cc1NC(=O)c1cncn1C)C[C@H]1[C@H]3CCCC[C@@]23CCN1C — efflux ratio (Caco-2; 10 µM, pH 6.5): 7.19
O=C1CC[C@@]2(O)[C@H]3Cc4ccc(O)c5c4[C@@]2(CCN3CCc2ccccc2)[C@H]1O5 — log k amino protonation: 9.84
Cc1nc2cccc(OCC(C)(C)C(=O)NC(C)C)c2c(N)c1C(=O)[O-].[Na+] — revertant colonies per plate (Salmonella typhimurium; TA100; 2.0 mg per plate, with S9, plate incorporation): 111 ± 5

Some of these lines once more:
COc1cc2c(cc1NC(=O)c1cncn1C)C[C@H]1[C@H]3CCCC[C@@]23CCN1C — efflux ratio (Caco-2; 10 µM, pH 6.5): 7.19
O=C1CC[C@@]2(O)[C@H]3Cc4ccc(O)c5c4[C@@]2(CCN3CCc2ccccc2)[C@H]1O5 — log k amino protonation: 9.84
